Measurements from different studies.
A part holds a random share of what one study measured. Positions count from the first letter of the parent shown.

Series 1
Target: ABI1, truncated, D143A, DHFR fusion (Arabidopsis thaliana)
Method: DHFR PCA, deep sequencing
Matrix: yeast
Setting: methotrexate growth selection, single substitutions
Added: (+)-ABA 58 µM
Baseline: wild-type fitted maximum
Reading: higher = stronger binding
Starting sequence: PYL1, truncated, DHFR fusion (Arabidopsis thaliana); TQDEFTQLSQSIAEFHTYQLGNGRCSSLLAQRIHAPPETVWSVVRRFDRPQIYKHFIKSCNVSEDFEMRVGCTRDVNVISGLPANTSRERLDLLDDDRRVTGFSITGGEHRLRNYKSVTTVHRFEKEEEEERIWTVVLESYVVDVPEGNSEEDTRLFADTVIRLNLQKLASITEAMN; partner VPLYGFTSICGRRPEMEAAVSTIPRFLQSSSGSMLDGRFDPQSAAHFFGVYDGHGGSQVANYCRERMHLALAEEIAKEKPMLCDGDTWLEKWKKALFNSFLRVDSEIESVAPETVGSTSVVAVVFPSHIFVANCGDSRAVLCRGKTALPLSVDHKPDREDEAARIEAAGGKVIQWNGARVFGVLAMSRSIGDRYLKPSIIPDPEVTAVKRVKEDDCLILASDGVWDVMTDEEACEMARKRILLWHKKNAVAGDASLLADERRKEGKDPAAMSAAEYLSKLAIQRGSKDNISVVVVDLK
| Change | relative binding score |
| --- | --- |
| V78I | 90.2% |
| E125P | 89.7% |
| N61W | 79.5% |
| F47P | -1.83% |
| P36T | 79.6% |
| F124P | 49.2% |

Series 2
Target: RNA binding protein fox-1 homolog 2, RRM domain, GST-SBP tag (RBFOX2, Homo sapiens, UniProt O43251-10, residues 100-194)
Method: RNA Bind-n-Seq
Molecule type: RNA
Matrix: in vitro
Tested at: 365 nM
Setting: natural RNA segment, single round, ends assumed
Baseline: no-protein control
Reading: higher = stronger binding
Shared flanks, not repeated: GGGAGUUCUACAGUCCGACGAUC … UGGAAUUCUCGGGUGCCAA
Construct (chain): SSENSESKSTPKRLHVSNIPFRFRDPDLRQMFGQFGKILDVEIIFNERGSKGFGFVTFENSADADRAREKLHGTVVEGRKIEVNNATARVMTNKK
| Sequence | RBNS enrichment (R) |
| --- | --- |
| GCAGCGUUUGUUUGGAAUUUUCUUUGCUUUUGUUUUCUUUGCGGUUGUUCUGUGUGCAUGGAUUCCACACCUCUGCCGUAGGUAGAUCCGUCAGCGGGCAUUAUUACCGU | 2.81 |
| GUCUGCAGAGCCAAAUCUUGCUCUUUCCAGCACAAUCGGGCAGCUCACGGAUUAGGAAUUAACAGCCAAAGGCUCCCACGGAAGGGACCAGAAGGGGCUGAGCCCCACCC | 0.375 |
| UAUUUAUCUUGUACAUAUGUAUUUUGAAAUCUUUUAAACCUGAAAAAUAAAUAGUCAUUUAAUGUUGGUAUGUGUUUAUCCUGAAUGUGUGUCUGGGAGUAAACUGGCCA | 1.24 |
| CCCCCUUAGUCAAUAGCUUGCGAAAGACAUCUUAACUCACCCUUGCAGAUAAGUCUUGGAGUGAAACAAAUAAAUAGCAUUGUAUUCCUGGCCAUUUGCCUGGCUAGUUG | 0.506 |
| GAUUUUGUUACAGAUGUUUAUGGUGGGGUUGGGGGUUGGGGAGCACCAUGAUCUACGGGACUGUGCUUGGUCCUUUGCUUCUGCCCGUUCCCAUCUCACCUCACCAUUCC | 0.558 |
| AUGUUUACUUUUAUAUCCCUAGCACAAAGCAAGUGCCUGGCACAUAGUCAGUGCCCUAAGUAUUCGUAGAGUGAAGAAUGCCAGCCUCUCUUGUCCCUGGUUUCCUUAUG | 0.323 |

Series 3
Target: CRIPT, C-terminal peptide
Method: DHFR complementation, deep sequencing
Matrix: yeast
Setting: single substitutions, model-inferred values
Baseline: wild type
Reading: higher = weaker binding
Starting sequence: ERBIN, PDZ domain 1 (human); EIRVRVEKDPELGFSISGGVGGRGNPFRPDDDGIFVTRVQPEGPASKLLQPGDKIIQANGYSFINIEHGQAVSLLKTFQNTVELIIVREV; partner TKNYKQTSV
| Change | binding free energy change [kcal/mol] |
| --- | --- |
| Q70W | 0.104 |
| E11D | -0.364 |
| V4A | 0.126 |
| L74E | 0.287 |
| I34A | 0.899 |
| F63E | 1.18 |

Further values, each from its own experiment
| Molecule | target | assay | system | setting | scale | measurement | value |
| --- | --- | --- | --- | --- | --- | --- | --- |
| PhoQ, residues 284 288 289 292 302 303 TLSLKA | PhoP, residues 12 14 15 18 19 NQAHL (Escherichia coli, UniProt P23836) | Sort-seq, measured: YFP reporter | E. coli | PhoQ-PhoP variant library, added: 10 µM Mg2+ | baseline: high Mg2+ state, higher = stronger signaling | fold induction | 21.7 |

For quick reference, copied from above (series 2):
| Sequence | RBNS enrichment (R) |
| --- | --- |
| GAUUUUGUUACAGAUGUUUAUGGUGGGGUUGGGGGUUGGGGAGCACCAUGAUCUACGGGACUGUGCUUGGUCCUUUGCUUCUGCCCGUUCCCAUCUCACCUCACCAUUCC | 0.558 |
| AUGUUUACUUUUAUAUCCCUAGCACAAAGCAAGUGCCUGGCACAUAGUCAGUGCCCUAAGUAUUCGUAGAGUGAAGAAUGCCAGCCUCUCUUGUCCCUGGUUUCCUUAUG | 0.323 |
